Measurements pooled from the literature.
Numbered parts are unrelated; each lists some results of a single study. Changes are numbered by the printed parent chain.

Series 1 — target: CCND1, cyclin fold, Cln2 fusion (human); method: yeast growth competition, sequencing; medium: yeast; notes: weak parent motif; relative to: not given; direction: higher = stronger binding
Parent: MASTL docking peptide (human); PMIAKNLMCELDE
`I3K`: “normalised enrichment score” 0.187.
For `M2T`, “normalised enrichment score” read 0.416.
`K5P` — result for “normalised enrichment score”: 0.258.
`E10K`: “normalised enrichment score” 0.169.
`I3G`: “normalised enrichment score” 0.371.
For `A4L`, “normalised enrichment score” read 0.202.
Under “normalised enrichment score”, `D12K` is recorded as 0.0477.
`L7A` — result for “normalised enrichment score”: -0.241.
`K5Y` — result for “normalised enrichment score”: 0.38.
Under “normalised enrichment score”, `M8I` is recorded as -0.0653.
`D12C`: “normalised enrichment score” 0.188.
For `D12Y`, “normalised enrichment score” read -0.32.
For `C9W`, “normalised enrichment score” read 0.144.
Under “normalised enrichment score”, `N6G` is recorded as -0.102.
`K5D`: “normalised enrichment score” 0.242.

Series 2 — method: protein binding microarray; molecule type: double-stranded DNA, one strand shown; medium: in vitro; tested at: not given; relative to: not given; direction: higher = stronger binding
Target: Histone acetyltransferase KAT6A, winged helix 2, GST fusion (KAT6A, Homo sapiens, UniProt Q92794, residues 85-181)
Notes: 8-mer, flanks averaged, mean of 2 arrays, mostly near background
Target sequence (chain): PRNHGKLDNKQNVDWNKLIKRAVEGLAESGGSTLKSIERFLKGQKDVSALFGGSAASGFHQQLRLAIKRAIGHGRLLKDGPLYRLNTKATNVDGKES
The E-score of `ACCCATAT` is reported as -0.158.
`TCCTGCGA` has an E-score of 0.095.
For `CGTTACTA`, the E-score was -0.163.
`ATATGCTC` has an E-score of 0.0636.
The E-score of `ACCTCAGT` is reported as -0.128.
The E-score of `GCCTAGGA` is reported as -0.00125.
`AAGAACGG` gave an E-score of -0.0777.
With `CCGAAAGC` the E-score was -0.0448.
For `AGTGACGC`, the E-score was 0.0794.
`CAATTGGC` gave an E-score of 0.0355.
The E-score of `GTTTTGCA` is reported as -0.0196.
`CAAATACA` gave an E-score of -0.165.
For `ACCCCTCG`, the E-score was 0.0265.

Series 3 — method: aptamer microarray, sandwich; molecule type: DNA with 2'F-ANA; medium: in vitro; tested at: 200 nM; added: Cy3 exosite-II aptamer, 400 nM; direction: higher = stronger binding; strand: GGTTGGTGTGGTTGG
Target: Prothrombin, mature alpha-thrombin (F2, Homo sapiens, UniProt P00734)
Notes: whole 15-mer aptamer, many near background
`2'F-ANA at 2 5 6 9 14` — result for “mean fluorescence intensity”: 44.3 a.u.
`2'F-ANA at 1 2 3 6 8 9 10 12 13 14 15` — result for “mean fluorescence intensity”: 54.5 a.u.
Under “mean fluorescence intensity”, `2'F-ANA at 1 4 5 6 7 8 9 15` is recorded as 67 a.u.
Under “mean fluorescence intensity”, `2'F-ANA at 1 3 5 6 7 9 11 12 14 15` is recorded as 47.2 a.u.
`2'F-ANA at 1 3 8 9 10 11 12 15`: “mean fluorescence intensity” 107 a.u.
`2'F-ANA at 2 5 6 8 10 12 15`: “mean fluorescence intensity” 64.4 a.u.
Under “mean fluorescence intensity”, `2'F-ANA at 2 4 8 9 10 11 12 13 15` is recorded as 87.4 a.u.
`2'F-ANA at 1 5 6 7 8 13`: “mean fluorescence intensity” 67.8 a.u.
`2'F-ANA at 4 5 7 8 9 10 11`: “mean fluorescence intensity” 73 a.u.
`2'F-ANA at 2 3 4 7 8 9 11`: “mean fluorescence intensity” 613 a.u.
`2'F-ANA at 1 3 5 7 9 15` — result for “mean fluorescence intensity”: 69.7 a.u.
`2'F-ANA at 2 4 7 8 12 13 14` — result for “mean fluorescence intensity”: 155 a.u.

Single results of other studies
For `PhoQ, residues 284 288 289 292 302 303 SCCLKL`, the fold induction was 10.6 (PhoP, residues 12 14 15 18 19 LQHIR (Escherichia coli, UniProt P23836); Sort-seq, measured: YFP reporter; E. coli; PhoQ-PhoP variant library, added: 10 µM Mg2+; relative to: high Mg2+ state, higher = stronger signaling).

A few entries again (series 1):
`L7A` — result for “normalised enrichment score”: -0.241.
`K5Y` — result for “normalised enrichment score”: 0.38.
Under “normalised enrichment score”, `M8I` is recorded as -0.0653.
`D12C`: “normalised enrichment score” 0.188.
For `D12Y`, “normalised enrichment score” read -0.32.
